Published values collected from several papers.
A part holds a random share of what one study measured. Positions count from the first letter of the parent shown.

Study 1 — method: RNA Bind-n-Seq; form: RNA; sample: in vitro; concentration: 200 nM; setting: whole 134-nt RNA, ends assumed; together with: 150 mM KCl; baseline: input library; reading: higher = stronger binding; measurement: log2 enrichment
Target: Ras GTPase-activating protein-binding protein 1, full length (G3BP1, Homo sapiens, UniProt Q13283)
Chain of UniProt Q13283 (whole entry, looked up): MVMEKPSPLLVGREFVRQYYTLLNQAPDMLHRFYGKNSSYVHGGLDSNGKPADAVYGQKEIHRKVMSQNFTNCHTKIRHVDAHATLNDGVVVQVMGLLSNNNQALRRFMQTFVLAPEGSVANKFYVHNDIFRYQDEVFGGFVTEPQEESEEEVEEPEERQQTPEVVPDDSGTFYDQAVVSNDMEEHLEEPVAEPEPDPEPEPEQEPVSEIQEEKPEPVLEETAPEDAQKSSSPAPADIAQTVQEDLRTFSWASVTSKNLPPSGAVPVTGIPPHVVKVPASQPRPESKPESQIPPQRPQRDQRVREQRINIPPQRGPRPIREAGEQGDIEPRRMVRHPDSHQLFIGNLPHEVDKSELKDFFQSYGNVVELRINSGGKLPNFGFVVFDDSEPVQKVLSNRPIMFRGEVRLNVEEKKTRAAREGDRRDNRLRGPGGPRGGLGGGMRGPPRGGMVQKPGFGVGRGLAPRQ
Constant ends, left off below: GGGAGUUCUACAGUCCGACGAUC … UGGAAUUCUCGGGUGUCAAGG
AGUCCUGUGCUACACAUCGUAUGUACCGAAUCGGGUUUUUUUGGGUUUUUGGGUGGGAAAGUAUUAUGUUACGCCGUUCGGAUCUGCACU: -0.265
UCCUGUGCUACACAUCGUAUGUACCGAAUCGGGAAAAAAGGGAAAAAAGGGAAAAAAGGGAAAGUAUUAUGUUACGCCGUUCGGAUCUGC: -0.362
UGGCCCUGGUGGCAUGCGGGGAGGAAGAGGUGGCCCCAUGGAUCGUGGUGGUCCCGGUGGAAUGUUCAGAGGUGGCCGUGGUGGAGACAG: 0.288
ACCAUGCAGGAAAGCAUCUUUGGGAAGUGGGGCAAGGGGGGGAUAGGGAGGGGGGUAACACUUUGGGAACAGGUGGUCCCAGGUCGUUUC: 1.31
CUCAAGUCCUGUGCUACACAUCGUAUGUACCGAAUCGGAAGGGGAAGGGAAGGGAAAGUAUUAUGUUACGCCGUUCGGAUCUGCACUUCC: 1.3
CCUGUGCUACACAUCGUAUGUACCGAAUCGGGAAAAAAGGGGAAAAAAGGAAAAAAGGGGAAAGUAUUAUGUUACGCCGUUCGGAUCUGC: -0.567
UGGGGGGUGGAUUUUGUUUAUUUUUUUAGCUCAUUUCCAGGGGUGGGAAUUUUUUUUUAAUAUGUGUCAUGAAUAAAGUUGUUUUUGAAA: 0.393
AGUCCUGUGCUACACAUCGUAUGUACCGAAUCGGGUUUGGGAAAAAAAGGGAAAGGGAAAGUAUUAUGUUACGCCGUUCGGAUCUGCACU: -0.0866
UCAAGUCCUGUGCUACACAUCGUAUGUACCGAAUCGGGGUGGGGUGGGGAGGGGAAAGUAUUAUGUUACGCCGUUCGGAUCUGCACUUCC: 1.65
UGAACAGCUCUGCGCUUUUUGUUACUGUGGGGAAAAAAGUUCCUUAGGACAAGGAGACUUAAAACAAUUCAGAAUAACGCCUGGAUUUAU: -0.918
AAGUCCUGUGCUACACAUCGUAUGUACCGAAUCGGGCCCCGGGGCCCCGGCCCCGGAAAGUAUUAUGUUACGCCGUUCGGAUCUGCACUU: -1.83
UGGGAGGUGGAUUUUGUUUAUUUUUUUAGCUCAUUUCCAGGGGUGGGAAUUUUUUUUUAAUAUGUGUCAUGGAUAAAGUUGUUUUUGAAA: 0.592
CAAGUCCUGUGCUACACAUCGUAUGUACCGAAUCGGGGAAAGGAAAGGAAAGGGGAAAGUAUUAUGUUACGCCGUUCGGAUCUGCACUUC: -0.356
GCAGGAAGUAAAAACAAAUGGAAAUACUUCGGAUAGUGGCAGGGGUGGGGGUUGCUAAGGAAAGGGUGGGAUGGGAGUGGGUAAAGAGUU: 0.832

Study 2 — method: universal PBM; form: double-stranded DNA, one strand shown; sample: in vitro; concentration: not given; reading: higher = stronger binding; measurement: E-score
Target: Sal-like protein 4, full length isoform B (SALL4, Homo sapiens, UniProt Q9UJQ4-2, residues 1-616)
Setting: 8-mer, flanks averaged, mean of replicates
CAGGTGCA: -0.13
ACGATCTC: -0.175
GCTGCGCA: -0.283
CATAGTGG: 0.0176
CACACAAG: -0.00584
GCGGTGTA: -0.0701
AAACAAAC: 0.137
GCAAATCA: 0.109
GAACATAC: 0.161
AAACGTGA: 0.12
CGGTGAAA: 0.014
AAAACTAA: 0.272
CGATGCTC: -0.306
AACGTGTG: 0.143
AATGATTA: 0.296
GTGACGCA: -0.155
AAAACCGC: -0.179
CCACGGAC: -0.274
CACTCCGC: -0.277
TGATAAAA: 0.291
AAACTGCA: -0.0469
GGCGCAGA: -0.238
ATTTTACA: 0.334
CAGGCTGG: -0.29
TTAGGGAA: 0.149

Study 3 — target: CCNA2, cyclin fold, Cln2 fusion (human); method: yeast growth competition, sequencing; sample: yeast; setting: strong parent motif; baseline: not given; reading: higher = stronger binding; measurement: normalised enrichment score
Starting sequence: RBL2 docking peptide (human); STTRRRLFVENDS; partner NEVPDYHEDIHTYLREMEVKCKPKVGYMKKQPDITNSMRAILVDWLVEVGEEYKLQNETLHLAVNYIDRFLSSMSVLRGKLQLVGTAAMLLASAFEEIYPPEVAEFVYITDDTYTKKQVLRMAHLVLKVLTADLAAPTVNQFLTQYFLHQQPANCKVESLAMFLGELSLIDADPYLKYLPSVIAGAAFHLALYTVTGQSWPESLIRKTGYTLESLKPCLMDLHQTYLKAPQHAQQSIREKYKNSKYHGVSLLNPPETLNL
STTRRRLFVENDC [S13C]: 5.54
VTTRRRLFVENDS [S1V]: 5.17
STCRRRLFVENDS [T3C]: 6.78
STTQRRLFVENDS [R4Q]: 1.17
STTERRLFVENDS [R4E]: -0.944
STTRRRLFVLNDS [E10L]: 3.84
STTRVRLFVENDS [R5V]: 1.88
STGRRRLFVENDS [T3G]: 3.42
STTRRRLFSENDS [V9S]: 5.65
STTRRLLFVENDS [R6L]: 2.96
NTTRRRLFVENDS [S1N]: 5.75
STTRDRLFVENDS [R5D]: 1.02
STTRRRLPVENDS [F8P]: 1.06
STTMRRLFVENDS [R4M]: 0.904
TTTRRRLFVENDS [S1T]: 5.21
STTRRRLFVENAS [D12A]: 5.22
STTRRRLFVECDS [N11C]: 6.17
STTRRRLFVENSS [D12S]: 5.51
STTRRRLLVENDS [F8L]: 1.62
STTRRRLFVENDP [S13P]: 5.89
STTRRRVFVENDS [L7V]: 0.904
STTRRRLFVEMDS [N11M]: 6.07
STTRRALFVENDS [R6A]: 4.28
YTTRRRLFVENDS [S1Y]: 5.39
STTRRRLFEENDS [V9E]: 5.57

Study 4 — method: RNA Bind-n-Seq; form: RNA; sample: in vitro; concentration: not given; baseline: input RNA pool; reading: higher = stronger binding; measurement: bound/input enrichment
Target: RING finger protein unkempt homolog, zinc fingers 1-6, GST-SBP tag (UNK, Homo sapiens, UniProt Q9C0B0, residues 30-357)
Setting: RNA with constant flanks, human and mouse sites, ends assumed
Constant ends, left off below: GGGAGUUCUACAGUCCGACGAUC … CAACAGAGGAUUGAGCAUCA
Target sequence (chain): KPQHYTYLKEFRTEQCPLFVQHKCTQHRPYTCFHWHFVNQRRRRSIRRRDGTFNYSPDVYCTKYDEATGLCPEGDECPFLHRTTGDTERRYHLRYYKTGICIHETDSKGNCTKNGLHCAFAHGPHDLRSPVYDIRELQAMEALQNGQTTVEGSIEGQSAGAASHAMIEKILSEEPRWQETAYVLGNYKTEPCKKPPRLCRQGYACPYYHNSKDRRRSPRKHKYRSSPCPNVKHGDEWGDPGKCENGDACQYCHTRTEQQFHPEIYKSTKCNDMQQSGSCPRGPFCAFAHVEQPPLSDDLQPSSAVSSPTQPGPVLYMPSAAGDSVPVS
AAGUCCCUGUUAUACUGAGUCAAAUCCAUUUUCUGGGUGAAUAAAUUUGGCCCUGCAGUGUAGCUCUUGUUCACCCUUUCCUUCCUUGGUGUUGUGUGUGAGAGAUGAGUGUUUUCCUGU: 0.184 ratio
AUGCCAGAUGAUGAAGGUGAAGGUGAAUUGUGUUGGAAAAAAGUAGACUUAGGGGACGUGAAGAAUGUGGAUGUCUUAUCUUUCAGUCAUGCUCCUUCAUUCAAUUUUCUUUCUAAUUCA: 0.172 ratio
UUACCAUCUGGCACACCUCAGAGUUUACCUAAAGAAGAUGAUAAGACAACCAAAACAAUAAAAGAACAGCCACAGCCACCAUGCACAGCAAAACCUGAUCAGGUGGAACCUGGGAAAGAA: 0.205 ratio
UACACUGAUGUUUAUCCAGAAAUCAUUGAACGUGCAUGCUUUGUCCUAGAGAAGAAAUUUGGGAUUCAACUGAAAGAAAUUGACAAAGAAGAACACCUGUAUAUUCUCAUCAGUACCCCC: 0.349 ratio
GGUACCAACAAAGACAAGGCUGAAUUCAUUCUGCCUAAUGGUCAAGAAGUAGAUCUCCCGAUUUCCUACUUAACUUCAGUCUCAUCUUUGAUUGUGUGGCAUCCAGCAAACCCUGCGGAG: 0.129 ratio
CGUGAAACCUAUUCUUAGCUCACAGGCCAUGGAGAAGCUGGUGGGGACCAGACCCAGCUCCUUAGCUGGCUGGGCUGGGGAGGGGGUAGUGACAGUGGCAGCUGCUACUCACUGCUCAGU: 0.11 ratio
CUCUUCCUCCUGCCCCUGGUUCCCUCCUCUCCUCCCACCCCCACAACCAGUACCAAUGUACAUAGUAAUUGUAAUGUUUUAGACUUUACAGAAACUUUCCUGUAUUCUGUAUAUAAAAAA: 9.61 ratio
UACCUCUUACAAAAAAAAGAAAAAAAAAGAAAAAGUUCAUUUCUUCAUUCUGUUUGUAUCUAGCGAAGCUGAAUGUCAGAAGCCCCUCUGUCCACACACAAAGUCUGCAUGUAUUGGUCG: 0.708 ratio
GUCACUUGUGUUGCUGCCUCUCCUCACAAGGACUCUGUGUUUCUUUCAUGCAGCGAGGACAAUAGAAUUUUACUCUGGGAUACCCGCUGUCCCAAGCCAGCAUCACAGAUUGGCUGCAGU: 0.573 ratio
AAUCGUUGUAUGGUAGAAAUUGUCCAGAAAUAUGACCCAGAAAAAGAUGAGUGGCAUAAAGUUUUUGAUCUUCCAGAGUCACUUGGUGGCAUUCGAGCCUGUACACUCACAGUUUUUCCA: 0.0991 ratio
AGCUAUGAUGAGAGCUAUUAUCAUCUGUGGUGGGAAAAGCUAUGUAAAUAGGUAGAUUGUAUAGAGAGACUAUCUUGUGUUGUGCCUGUAUGAAUUUUUAAAAGUUGUUGACUGGAUUUU: 0.891 ratio

Study 5 — method: RNA Bind-n-Seq; form: RNA; sample: in vitro; concentration: 365 nM; baseline: no-protein control; reading: higher = stronger binding; measurement: RBNS enrichment (R)
Target: RNA binding protein fox-1 homolog 2, RRM domain, GST-SBP tag (RBFOX2, Homo sapiens, UniProt O43251-10, residues 100-194)
Setting: natural RNA segment, single round, ends assumed
Constant ends, left off below: GGGAGUUCUACAGUCCGACGAUC … UGGAAUUCUCGGGUGCCAA
Residues (chain): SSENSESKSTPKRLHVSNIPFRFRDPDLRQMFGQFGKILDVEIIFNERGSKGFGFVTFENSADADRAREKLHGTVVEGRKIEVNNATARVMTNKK
CAAUCCCCAGCACUUACUUCUCACUGCAAAGGAGCAAAACAACAAAAACAGCAAGACCAGAAGUGCCCAGCCCCUUGCUGACAGAUUGCUUCGUGUGUGUCCCCACACAA: 0.35
CUUAGCUAAGGAGCUGAGAAACAGCCACAGUACUCCCUUCUCUUCGCGCACAGGGCCCUCUCUCUUAGAGACUGCUCAGCUUUCGAGUCCAGGGAGGAGUCAGCGGGGAG: 0.282
GGUGGGCCUUGGAGGAGGGCGGGAAAGGAGCGACCAACAUGGCGGUCCUCCACCCCUCAGCGACACCCACCGCCCGAGAAACUACAGACAAUGGCCACAAGUUUGGCGUC: 0.21
UGAAAGGGAGUUAAAUGAAUUCACAUGAAGGGGUCGCCUGAGUCCCGCAGUUCCCCGCUCUGUACUGUAUUUUGCCAUUUCCCGUAGUCAGGUGUUCUGCAGGGUCUCUU: 0.429
UAAGUUGAUGAGCUUCUCUCUACAACAUUUCUAGAAAAUAGAAAAAAAAGCACAGAGAAAUGUUUAACUGUUUGACUCUUAUGAUACUUCUUGGAAACUAUGACAUCAAA: 0.599
GAUGCCUAAUUUCUCUAUGUUCUGUUUGAAGGUUUCUGUCCAGAUAAAAUUGUCUUUUGAAAUUCAAUACUGUCUUGUGUUUACUUUUAGCUUCAGGGAAACCUCUUCCC: 0.851
AAUGAACCAACAUUUUUUGGCUCCUUGGGAUCAGAGAGAGCCAGAGUAGCAGAGGGUCUCGUGCCCAAAAGGCUACCCUUCAAGAUAAGGGAGCCCCGAGGGUCUUUGCA: 14.9
UAGCACGGAGGAGGAGGUGCUGCGUUGGAGGGAGGGGAUCCUCCAGGAGCUCUCUGGAGCCCAUCUAGGAAGCUAGAGUGUGUGGCCCGCCAGGAGCUCAGGAAGGAUAC: 0.938
CUCACAUCUUCCCAGGCUGCCUUUUCUUCCAAGUUUCACCUUUCCUCCCAGCAGAAAGCUCUGCUUGGCUUUUGGUGCACUGCUCACCCCCAGCUCCACUGGCCCAAGUC: 0.269
AGAAUAAGCCUUUUAAGGUAAACCUCAAAAUUAUCAUUUUAUGGUAAUACUGACCAUUUUAGUCCCCUAGGUUUGACAUGGGAGAUAGUGACUACACUGGUGUCUGACUU: 3.33
UGGAUCCUGUGGGUGGAGUCAGCAGGAACAAAGGGUUUUCCAUGGUAUUGAUGCUACCUCAGGUCUCUAAGAUGCACAUGAGUCAGCACAGGUGGCACUGUCUCUCCCUU: 0.938
GUGCCCUGUUUCACUUAUAGGGUCUAGAAUGCUUGUGUUGAGUAAAAAGGAGAUGCCCAAUAUUCAAAGCUGCUAAAUGUUCUCUUUGCCAUAAAGACUCCGUGUAACUG: 0.611
